Results gathered from unrelated publications.
Numbered parts are unrelated; each lists some results of a single study.

Block 1 — method: RNAcompete; form: RNA; matrix: in vitro; concentration: 20 nM; setting: 7-mer, probes averaged, single round; relative to: mean of 7-mers; direction: higher = stronger binding
Target: PABPC1L2, full length, GST fusion (mouse, UniProt A0ABA7IW68)
Target sequence (chain): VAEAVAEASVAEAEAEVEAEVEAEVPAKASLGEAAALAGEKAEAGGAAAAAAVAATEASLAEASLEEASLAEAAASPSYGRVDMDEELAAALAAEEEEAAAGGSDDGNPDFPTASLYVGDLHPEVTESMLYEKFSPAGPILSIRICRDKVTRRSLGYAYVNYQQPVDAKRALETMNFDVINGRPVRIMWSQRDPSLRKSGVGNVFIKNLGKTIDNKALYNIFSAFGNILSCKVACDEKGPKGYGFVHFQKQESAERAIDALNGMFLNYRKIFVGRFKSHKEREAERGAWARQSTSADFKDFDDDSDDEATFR
Sequence	7-mer Z-score
UUGUCCA	-0.264
UGCCUCG	-0.347
AGCGCCA	-0.0446
GAGGAUU	-0.173
GGGUCGU	-0.188
GGUCUGA	-0.179
GCGAAUC	0.00436
AGCUUUC	-0.364
GUCUACG	-0.335
UCUUUUC	-0.362
UUAGUCC	-0.434
AUCCAUA	-0.108
UUGGCAU	-0.115
GGCUAUA	0.225
UCAGGGC	-0.0174
CUAUCUA	-0.206
ACUCAUG	-0.0283
CUAUAGC	-0.237
CAGUACC	-0.108
AUAUGAC	0.138
CUCGAGG	-0.208
AGCGUGA	-0.151
UAUAUGG	-0.0609
GACAUCA	-0.108

Block 2 — method: protein binding microarray; form: double-stranded DNA, one strand shown; matrix: in vitro; concentration: not given; relative to: not given; direction: higher = stronger binding
Target: Histone acetyltransferase KAT6A, winged helix 1, GST fusion (KAT6A, Homo sapiens, UniProt Q92794, residues 1-85)
Setting: 8-mer, flanks averaged, mean of 2 arrays, mostly near background
Construct (chain): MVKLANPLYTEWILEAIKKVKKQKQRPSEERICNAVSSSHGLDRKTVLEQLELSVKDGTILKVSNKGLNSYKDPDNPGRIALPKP
Sequence	E-score
TGTTGAAA	-0.0445
CCACCTCC	-0.149
TATTCGAA	-0.145
AAGCCTGT	-0.0352
CCATATGA	-0.116
GGAGCTAA	-0.2
CATGGGGG	-0.224
AGATAGAA	-0.168
CAAAGTAG	-0.256
CGAGCTAA	-0.0468
AATTCTGG	-0.139
ATTGCGAA	0.00825
ACGGCTTC	0.38
GTTTGCCA	-0.0265
AGATGCTA	-0.0529
ATGAGCTG	-0.0602
GCGGGTAA	0.324
AAGCAAGA	-0.158
CCTGACCC	0.0485
AGTTGAAC	-0.155

Block 3 — method: RNA Bind-n-Seq; form: RNA; matrix: in vitro; concentration: 365 nM; relative to: no-protein control; direction: higher = stronger binding
Target: RNA binding protein fox-1 homolog 2, RRM domain, GST-SBP tag (RBFOX2, Homo sapiens, UniProt O43251-10, residues 100-194)
Setting: natural RNA segment, single round, ends assumed
Residues (chain): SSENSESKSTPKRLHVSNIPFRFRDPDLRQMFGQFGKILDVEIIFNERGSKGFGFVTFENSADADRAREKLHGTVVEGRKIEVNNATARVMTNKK
Sequence	RBNS enrichment (R)
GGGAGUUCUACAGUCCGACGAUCUCACCAACUAGUCUCAAAAGAUUGUCUUAAGCCCUGACGAUGGCUGUCCCCAGCCACACCUUGGGGCAUCCUCUCUGCCUGGCCCUGUCUGAUGAGCAUUUCUGUUGCUUUGGAAUUCUCGGGUGCCAA	0.277
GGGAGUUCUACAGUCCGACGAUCACCUGUGAGAUUCUUACACAGGGGUUGGCUUCUCUAUGUUAGCCAGGGGUGCUGUAAGAACUCAGGUUAGUAGCAUACUUGAGUAAUCAGGGUCAAAGUGUCUCACCACAUGGAAUUCUCGGGUGCCAA	0.356
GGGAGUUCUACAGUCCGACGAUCUAGAAGAUGGUCAAAAAAAGUCCAAGUUACCAAUUUUUUAAAAUUUAUAGGCAAAGUAUCAAAUUGUCUUCUUAAUAUGAUAAACUGUGCUUUAUCAUUCUGAAAACUCAUGGAAUUCUCGGGUGCCAA	0.55
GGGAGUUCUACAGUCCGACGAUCUUGGCUCAUGCAUAUAACUAUCUGCUGCUGAUGUAGUUCUCCAUCUUCAAGAUUUAGAGUGGGUUAACCAGGUCAUUACAUCUUAAUUUAAUAACAAGCAUUACUGUAGAUGGAAUUCUCGGGUGCCAA	0.609
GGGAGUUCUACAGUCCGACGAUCCUGUUGCAUUUUUGCAAUCUUGUGUCCCGCUCGGUGAUGUUCUACAAACUCUGUUUUAAGGUUGAGAAAGUUUCAAGGGUGAAGAUCUCAAAACAGUGCUAAAAUCAAAGUGGAAUUCUCGGGUGCCAA	0.498
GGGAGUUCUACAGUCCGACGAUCUGGCUGAGCAGCCGCUUUUUAGACGUUAUCAUUUUGCCUCAUGUUGGAGGACUUUAUGGAAUUUAAGAAAUACAUUUUGUGUGCAUAUUGUUUCAUAGCAAGAAUUCGUUUGGAAUUCUCGGGUGCCAA	0.605
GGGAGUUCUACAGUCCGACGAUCGGACCUAUGCAAUUACAUGGGCUCCAUAUCAAAUGGCAUGGUGUCUCUACUGCUGAUUCUCACCUUGCUGGAAUUAUGCGUAACCAUCUCUACCAUAGCCAUGUGGUGCAUGGAAUUCUCGGGUGCCAA	0.362
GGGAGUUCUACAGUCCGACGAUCUUUCUCAUGAGCGGGGAGCAUAACUGUUAGUUAUUUGUGGUGAUUAUGGCAGAUUUCAAGAUCACGUGACAAUGCAGUCUCUAAUUGUUCACUGUCCAUAUAUAUGAUUUUGGAAUUCUCGGGUGCCAA	0.728

Block 4 — method: DNA-protein interaction ELISA; form: double-stranded DNA, one strand shown; matrix: in vitro, bacterial lysate; concentration: not given; setting: whole dsDNA probe, crude lysate protein; relative to: highest signal in screen; direction: higher = stronger binding
Target: Probable WRKY transcription factor 50, DNA-binding domain (WRKY50, Arabidopsis thaliana, UniProt Q8VWQ5, residues 99-173)
Construct (chain): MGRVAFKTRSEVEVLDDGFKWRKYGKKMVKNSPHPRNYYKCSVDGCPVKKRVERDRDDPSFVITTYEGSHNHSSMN
Sequence	relative absorbance
AAAAAATTCCCAGCGTATCCGACCCGAAAA	24.9 % of maximum
AAAAAATGTCCATCTTGCGTCTGTATAAAA	42.3 % of maximum
AAAAAAGGCTTCCACTTTGAGTTTGCAAAA	18.1 % of maximum
AAAAAATTCCTGTCCGCTCTCGCTCCAAAA	58.7 % of maximum
AAAAAACTACAACCTGCGCGGTGGTCAAAA	16.7 % of maximum
AAAAAATTCACTTTTACCTTTGTGTTAAAA	36.9 % of maximum
AAAAAATTCTTTTTTCTTCAAGGTCTAAAA	46 % of maximum
AAAAAAGCGTAAGCCTTGACAGTCGTAAAA	39 % of maximum
AAAAAAGATGATTAGTAATTGCGGAAAAAA	17.1 % of maximum
AAAAAATGCCGAGACCCCATGCCGGCAAAA	10.4 % of maximum
AAAAAAGCTAGTGCTGCCACCAACGTAAAA	11.9 % of maximum
AAAAAAACTCACGGCGTCACTATGGTAAAA	15.1 % of maximum
AAAAAAAAGCTTCGGAGTCTTGAGAAAAAA	37.9 % of maximum
AAAAAAACTCTCCGGGTACAATTGCAAAAA	32.3 % of maximum
AAAAAACGCTTTCAGTTTTGATCTTAAAAA	10.3 % of maximum
AAAAAATATGTAGCTGCCGTTACGCTAAAA	25.7 % of maximum
AAAAAAGCCGTGGGTGATGGTCACAGAAAA	10.5 % of maximum
AAAAAAAGTTCCAGGTCCGATGCTCAAAAA	41 % of maximum
AAAAAAATTGTATCATACTTCAGTTGAAAA	10.6 % of maximum
AAAAAACACTGCACTATTGGGAGTTCAAAA	13.6 % of maximum
AAAAAAGTCCGCCCTTAATTCATATTAAAA	78.5 % of maximum
AAAAAATGGAAAGACCTATACCGGTCAAAA	33.8 % of maximum
AAAAAATGTGGTTACGGCCTCGATGAAAAA	18.6 % of maximum

For quick reference, copied from above (block 4):
Sequence	relative absorbance
AAAAAATGCCGAGACCCCATGCCGGCAAAA	10.4 % of maximum
AAAAAAGCTAGTGCTGCCACCAACGTAAAA	11.9 % of maximum
AAAAAAACTCACGGCGTCACTATGGTAAAA	15.1 % of maximum
AAAAAAAAGCTTCGGAGTCTTGAGAAAAAA	37.9 % of maximum
AAAAAAACTCTCCGGGTACAATTGCAAAAA	32.3 % of maximum
AAAAAACGCTTTCAGTTTTGATCTTAAAAA	10.3 % of maximum
AAAAAATATGTAGCTGCCGTTACGCTAAAA	25.7 % of maximum
AAAAAAGCCGTGGGTGATGGTCACAGAAAA	10.5 % of maximum
AAAAAAAGTTCCAGGTCCGATGCTCAAAAA	41 % of maximum
AAAAAAATTGTATCATACTTCAGTTGAAAA	10.6 % of maximum
AAAAAACACTGCACTATTGGGAGTTCAAAA	13.6 % of maximum
AAAAAAGTCCGCCCTTAATTCATATTAAAA	78.5 % of maximum
